# Experimental data pooled from the literature.
# Protocols differ between the studies behind these lines. ± marks the error that the study gave.
Structure (SMILES),tested on,test,system,setting,how to read,endpoint,result
CC(=O)OC[C@H]1O[C@@H](Sc2sc(C(=O)c3ccc(C)cc3)c(N)c2-c2nc3ccccc3s2)[C@H](OC(C)=O)[C@@H](OC(C)=O)[C@H]1OC(C)=O,SN12C,SRB,,"10 µM, 48 h",relative to: untreated,growth,91.4%
O=Cc1c(O)ccc2ccccc12,hCMEC/D3,"qPCR, refers to: KLF2",,"50 µM, 12 h",relative to: control,mRNA level,~2.3 fold
Cc1cc(O)c(C=O)c2c1C(=O)Oc1c(CO)c(O)c3c(c1O2)C(O)OC3=O (stereo not drawn),,,"streptozotocin-induced diabetic male rats, plasma","10 mg/kg, 5 weeks",,fasting plasma glucose,190 ± 7.29 mg/dL
COc1cc(CNC(=O)C[C@H](C)CCC=C(C)C)ccc1OCc1cn(-c2ccc(Cl)c(Cl)c2)nn1,NCI-H322M,SRB,,"10 µM, 48 h",,growth percent,82.5%
COC(=O)c1cnc(-c2cnccn2)cc1C(=O)OC.COC(=O)c1cnc(-c2cnccn2)cc1C(=O)OC.O.O.O.O=S(=O)([O-])C(F)(F)F.O=S(=O)([O-])C(F)(F)F.[Cu+2],calf thymus DNA,ethidium bromide displacement,,pH 7.4,,Stern-Volmer constant,263 ± 1 M⁻¹
COc1cc(CNC(=O)C[C@H](C)CCC=C(C)C)ccc1OCc1cn(-c2ccccc2[N+](=O)[O-])nn1,TK-10,SRB,,"10 µM, 48 h",,growth percent,114%
CC[C@H]1[C@@H](O)[C@@H]2[C@H](CC[C@]3(C)[C@@H]([C@H](C)CCOS(=O)(=O)[O-])CC[C@@H]23)[C@@]2(C)CC[C@@H](O)C[C@@H]12.[Na+],,,"ob/ob NASH mice, blood","oral, 3 mg/kg once daily, week 8",,fed blood glucose,6.8 ± 0.2 mmol/L
COc1cc(CNC(=O)C[C@H](C)CCC=C(C)C)ccc1OCc1cn(-c2ccccc2)nn1,TK-10,SRB,,"10 µM, 48 h",,growth percent,88.5%
CC(=O)OC[C@H]1O[C@@H](Sc2sc(C(=O)c3ccc(Br)cc3)c(N)c2-c2nc3ccccc3s2)[C@H](OC(C)=O)[C@@H](OC(C)=O)[C@@H]1OC(C)=O,TK-10,SRB,,"10 µM, 48 h",relative to: untreated,growth,147%

# A few entries again:
Structure (SMILES),tested on,test,system,setting,how to read,endpoint,result
O=Cc1c(O)ccc2ccccc12,hCMEC/D3,"qPCR, refers to: KLF2",,"50 µM, 12 h",relative to: control,mRNA level,~2.3 fold
